Results gathered from unrelated publications.
A part holds a random share of what one study measured.
Chain of UniProt O75582 (whole entry, looked up): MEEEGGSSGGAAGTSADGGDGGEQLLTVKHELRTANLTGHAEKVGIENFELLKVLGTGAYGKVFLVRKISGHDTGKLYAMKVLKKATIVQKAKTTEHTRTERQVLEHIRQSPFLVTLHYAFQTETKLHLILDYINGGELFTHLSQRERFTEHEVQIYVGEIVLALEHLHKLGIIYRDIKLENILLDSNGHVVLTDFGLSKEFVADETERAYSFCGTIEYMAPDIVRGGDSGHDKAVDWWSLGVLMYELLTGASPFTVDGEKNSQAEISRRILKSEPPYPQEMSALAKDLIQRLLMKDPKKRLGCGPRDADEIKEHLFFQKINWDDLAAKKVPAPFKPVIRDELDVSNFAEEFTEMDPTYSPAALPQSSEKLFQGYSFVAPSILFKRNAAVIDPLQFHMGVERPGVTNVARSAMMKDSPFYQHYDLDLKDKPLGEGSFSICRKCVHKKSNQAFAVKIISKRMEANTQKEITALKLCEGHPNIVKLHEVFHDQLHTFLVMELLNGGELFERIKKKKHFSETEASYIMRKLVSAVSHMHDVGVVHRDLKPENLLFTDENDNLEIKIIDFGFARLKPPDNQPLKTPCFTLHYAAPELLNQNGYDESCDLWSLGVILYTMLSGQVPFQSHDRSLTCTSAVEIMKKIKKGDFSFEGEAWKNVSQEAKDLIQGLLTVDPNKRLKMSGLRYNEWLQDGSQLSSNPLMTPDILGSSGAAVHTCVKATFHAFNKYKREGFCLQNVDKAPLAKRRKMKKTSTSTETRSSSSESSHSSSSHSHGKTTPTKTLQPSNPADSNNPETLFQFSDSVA
Chain of UniProt Q96L34 (whole entry, looked up): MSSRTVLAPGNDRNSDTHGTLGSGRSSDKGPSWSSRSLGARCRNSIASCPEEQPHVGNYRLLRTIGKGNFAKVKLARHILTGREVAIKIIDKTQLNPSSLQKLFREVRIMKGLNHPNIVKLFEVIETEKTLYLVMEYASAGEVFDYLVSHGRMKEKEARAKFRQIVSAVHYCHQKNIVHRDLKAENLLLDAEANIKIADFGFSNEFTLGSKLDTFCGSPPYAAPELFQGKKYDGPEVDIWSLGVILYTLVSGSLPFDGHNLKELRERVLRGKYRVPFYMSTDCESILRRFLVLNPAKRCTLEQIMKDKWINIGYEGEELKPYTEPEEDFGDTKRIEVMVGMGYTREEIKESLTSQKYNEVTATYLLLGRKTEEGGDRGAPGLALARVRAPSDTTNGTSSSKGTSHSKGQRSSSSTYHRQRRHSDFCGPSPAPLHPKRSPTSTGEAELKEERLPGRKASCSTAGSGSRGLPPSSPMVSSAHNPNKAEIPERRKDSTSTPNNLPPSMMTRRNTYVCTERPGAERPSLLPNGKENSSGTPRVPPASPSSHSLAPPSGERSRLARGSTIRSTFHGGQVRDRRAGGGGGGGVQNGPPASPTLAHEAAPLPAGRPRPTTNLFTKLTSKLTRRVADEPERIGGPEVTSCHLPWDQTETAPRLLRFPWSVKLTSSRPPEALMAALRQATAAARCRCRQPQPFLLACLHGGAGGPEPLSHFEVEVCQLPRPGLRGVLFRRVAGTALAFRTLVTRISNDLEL
Chain of UniProt P42338 (whole entry, looked up): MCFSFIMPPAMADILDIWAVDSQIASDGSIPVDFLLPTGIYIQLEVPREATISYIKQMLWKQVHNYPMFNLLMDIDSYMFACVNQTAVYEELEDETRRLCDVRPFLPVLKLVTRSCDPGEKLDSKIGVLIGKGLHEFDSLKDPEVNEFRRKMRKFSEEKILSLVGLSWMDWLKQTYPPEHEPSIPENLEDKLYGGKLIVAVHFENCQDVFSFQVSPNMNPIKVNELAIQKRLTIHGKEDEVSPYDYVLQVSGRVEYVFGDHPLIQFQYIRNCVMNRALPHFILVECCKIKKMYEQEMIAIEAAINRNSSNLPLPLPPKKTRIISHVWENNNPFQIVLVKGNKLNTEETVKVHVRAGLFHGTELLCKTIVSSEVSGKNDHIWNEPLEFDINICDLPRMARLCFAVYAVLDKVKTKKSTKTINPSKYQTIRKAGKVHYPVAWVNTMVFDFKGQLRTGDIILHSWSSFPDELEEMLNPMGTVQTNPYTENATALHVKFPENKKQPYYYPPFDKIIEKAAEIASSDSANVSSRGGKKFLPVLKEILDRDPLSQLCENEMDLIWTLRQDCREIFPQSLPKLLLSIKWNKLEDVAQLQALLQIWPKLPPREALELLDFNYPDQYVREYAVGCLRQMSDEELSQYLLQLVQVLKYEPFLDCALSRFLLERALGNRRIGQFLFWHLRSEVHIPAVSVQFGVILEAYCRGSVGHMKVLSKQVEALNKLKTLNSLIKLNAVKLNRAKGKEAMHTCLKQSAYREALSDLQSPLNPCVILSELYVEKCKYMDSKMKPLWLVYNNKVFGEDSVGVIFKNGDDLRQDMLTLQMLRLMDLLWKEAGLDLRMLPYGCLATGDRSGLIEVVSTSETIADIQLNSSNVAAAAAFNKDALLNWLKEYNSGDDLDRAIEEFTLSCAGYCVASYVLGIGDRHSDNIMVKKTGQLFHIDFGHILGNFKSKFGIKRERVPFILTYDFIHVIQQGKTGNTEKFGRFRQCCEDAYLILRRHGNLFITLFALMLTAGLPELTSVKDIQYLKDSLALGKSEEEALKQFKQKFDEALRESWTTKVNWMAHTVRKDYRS
Chain of UniProt Q13523 (whole entry, looked up): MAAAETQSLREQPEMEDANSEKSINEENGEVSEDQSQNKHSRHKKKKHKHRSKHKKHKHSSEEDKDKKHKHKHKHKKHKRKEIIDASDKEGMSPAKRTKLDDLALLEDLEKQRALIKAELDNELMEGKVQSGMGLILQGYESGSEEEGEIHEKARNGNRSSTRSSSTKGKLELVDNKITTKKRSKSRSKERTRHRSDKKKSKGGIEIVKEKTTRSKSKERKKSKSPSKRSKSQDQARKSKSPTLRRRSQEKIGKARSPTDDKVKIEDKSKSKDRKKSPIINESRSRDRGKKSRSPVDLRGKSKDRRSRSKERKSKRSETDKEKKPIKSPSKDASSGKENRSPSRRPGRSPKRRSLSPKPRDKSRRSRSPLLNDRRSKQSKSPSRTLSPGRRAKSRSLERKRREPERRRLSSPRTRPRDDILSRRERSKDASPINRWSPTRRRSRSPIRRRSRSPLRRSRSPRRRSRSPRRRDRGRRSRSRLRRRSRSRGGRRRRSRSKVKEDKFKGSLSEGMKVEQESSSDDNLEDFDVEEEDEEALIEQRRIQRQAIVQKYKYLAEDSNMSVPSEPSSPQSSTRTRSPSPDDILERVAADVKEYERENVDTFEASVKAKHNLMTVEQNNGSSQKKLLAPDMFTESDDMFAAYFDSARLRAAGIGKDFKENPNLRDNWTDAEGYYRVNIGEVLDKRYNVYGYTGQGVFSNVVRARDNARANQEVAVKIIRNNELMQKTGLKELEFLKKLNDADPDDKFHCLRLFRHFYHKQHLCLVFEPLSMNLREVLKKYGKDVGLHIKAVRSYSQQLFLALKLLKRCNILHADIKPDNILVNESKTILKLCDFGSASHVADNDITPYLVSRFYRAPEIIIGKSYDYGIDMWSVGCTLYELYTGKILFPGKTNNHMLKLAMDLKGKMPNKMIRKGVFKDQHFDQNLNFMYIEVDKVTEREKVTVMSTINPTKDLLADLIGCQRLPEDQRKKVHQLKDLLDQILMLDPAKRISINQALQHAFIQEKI
Chain of UniProt Q9H4B4 (whole entry, looked up): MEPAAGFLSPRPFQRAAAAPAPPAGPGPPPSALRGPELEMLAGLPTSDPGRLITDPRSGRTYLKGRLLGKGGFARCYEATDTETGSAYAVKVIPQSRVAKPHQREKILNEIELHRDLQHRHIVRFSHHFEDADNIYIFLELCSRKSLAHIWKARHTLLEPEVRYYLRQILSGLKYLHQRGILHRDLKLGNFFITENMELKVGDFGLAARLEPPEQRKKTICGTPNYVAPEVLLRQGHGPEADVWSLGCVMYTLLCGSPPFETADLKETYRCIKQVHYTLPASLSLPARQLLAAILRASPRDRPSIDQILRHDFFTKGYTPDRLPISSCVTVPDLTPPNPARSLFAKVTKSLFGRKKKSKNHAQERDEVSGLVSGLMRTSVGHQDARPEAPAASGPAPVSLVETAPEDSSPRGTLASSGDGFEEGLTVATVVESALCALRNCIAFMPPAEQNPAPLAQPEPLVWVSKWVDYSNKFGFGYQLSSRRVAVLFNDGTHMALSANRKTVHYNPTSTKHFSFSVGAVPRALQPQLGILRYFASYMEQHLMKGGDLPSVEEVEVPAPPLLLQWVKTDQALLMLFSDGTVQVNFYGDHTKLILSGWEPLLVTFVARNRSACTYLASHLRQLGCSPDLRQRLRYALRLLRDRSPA
Chain of UniProt P15056 (whole entry, unmodified, looked up): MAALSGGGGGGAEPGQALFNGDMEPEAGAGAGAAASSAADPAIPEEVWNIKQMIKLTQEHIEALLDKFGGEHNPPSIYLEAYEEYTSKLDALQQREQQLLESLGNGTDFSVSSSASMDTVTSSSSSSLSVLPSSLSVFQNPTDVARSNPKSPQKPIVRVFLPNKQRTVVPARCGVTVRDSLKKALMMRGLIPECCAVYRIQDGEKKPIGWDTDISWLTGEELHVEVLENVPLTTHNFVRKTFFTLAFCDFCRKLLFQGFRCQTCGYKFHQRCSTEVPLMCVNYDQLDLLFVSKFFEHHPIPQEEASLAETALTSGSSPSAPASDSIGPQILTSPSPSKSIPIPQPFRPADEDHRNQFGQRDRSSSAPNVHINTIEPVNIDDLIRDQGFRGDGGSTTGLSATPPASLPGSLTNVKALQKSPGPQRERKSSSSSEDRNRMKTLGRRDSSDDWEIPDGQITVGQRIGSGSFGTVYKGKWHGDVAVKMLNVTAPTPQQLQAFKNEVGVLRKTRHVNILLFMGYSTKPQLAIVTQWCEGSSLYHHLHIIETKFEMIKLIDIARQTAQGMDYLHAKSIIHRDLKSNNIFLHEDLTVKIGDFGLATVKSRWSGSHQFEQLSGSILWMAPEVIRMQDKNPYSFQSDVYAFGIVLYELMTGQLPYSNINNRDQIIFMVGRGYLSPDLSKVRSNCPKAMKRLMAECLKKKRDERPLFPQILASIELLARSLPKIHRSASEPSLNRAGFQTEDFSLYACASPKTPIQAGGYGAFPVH

Set 1
SMILES: COc1ccc2[nH]c3c4[nH]c5ccc(OC)cc5c4c4c(c3c2c1)C(=O)NC4=O
Effect on: binding
Concentration: 1 µM
| target | assay | remaining binding [%] |
| --- | --- | --- |
| MAP/microtubule affinity-regulating kinase 4 (MARK4, Homo sapiens, UniProt Q96L34) |  | 100 |
| Protein kinase C delta type (PRKCD, Homo sapiens, UniProt Q05655) |  | 93 |
| Mitotic checkpoint serine/threonine-protein kinase BUB1 (BUB1, Homo sapiens, UniProt O43683) |  | 29 |
| Receptor-interacting serine/threonine-protein kinase 1 (RIPK1, Homo sapiens, UniProt Q13546) |  | 90 |
| Ribosomal protein S6 kinase alpha-5, N-terminal kinase domain (RPS6KA5, Homo sapiens, UniProt O75582) | competition with immobilised ligand | 53 |
| Serine/threonine-protein kinase Nek7 (NEK7, Homo sapiens, UniProt Q8TDX7) |  | 92 |
| Serine/threonine-protein kinase Chk2 (CHEK2, Homo sapiens, UniProt O96017) |  | 1.7 |
| 5'-AMP-activated protein kinase catalytic subunit alpha-2 (PRKAA2, Homo sapiens, UniProt P54646) |  | 54 |
| Serine/threonine-protein kinase D3 (PRKD3, Homo sapiens, UniProt O94806) |  | 75 |

Set 2
Organism: Sarcocystis neurona
Effect on: parasite growth
Concentration: 10 µM
Notes: secondary screen
| SMILES | inhibition [%] |
| --- | --- |
| CC(C)(C)NC[C@H](O)COc1nsnc1N1CCOCC1 | -41.5 |
| Clc1ccccc1C(c1ccccc1)(c1ccccc1)n1ccnc1 | 53 |
| Cc1nc2ccc(CN(C)c3ccc(C(=O)N[C@@H](CCC(=O)O)C(=O)O)s3)cc2c(=O)[nH]1 | -43.1 |
| COc1cccc2c1C(=O)c1c(O)c3c(c(O)c1C2=O)C[C@@](O)(C(=O)CO)C[C@@H]3O[C@H]1C[C@H](N)[C@@H](O)[C@H](C)O1 | 68.3 |
| Cc1ccc(N(CC2=NCCN2)c2cccc(O)c2)cc1 | -21.9 |
| CCOC(=O)c1ncn2c1CN(C)C(=O)c1cc(F)ccc1-2 | -3.6 |
| COc1cc2nc(N3CCN(C(=O)C4COc5ccccc5O4)CC3)nc(N)c2cc1OC (stereo not drawn) | 73.5 |
| Cl.O=C1[C@H]2CCCC[C@H]2C(=O)N1CCCCN1CCN(c2nsc3ccccc23)CC1 | 91.7 |
| NS(=O)(=O)c1cc(C(=O)O)c(NCc2ccco2)cc1Cl | -15 |
| CCOC(=O)C1=C(C)NC(C)=C(C(=O)OC)C1c1cccc(Cl)c1Cl (stereo not drawn) | -40.5 |

Set 3
Compound: CC1=C(C#N)C(c2ccc3c(c2)c(NC(=O)c2ccccc2C)nn3C)C(C#N)=C(C)N1
Method: competition with immobilised ligand
Concentration: 1 µM
| target | assay | remaining binding |
| --- | --- | --- |
| Phosphatidylinositol 4,5-bisphosphate 3-kinase catalytic subunit beta isoform (PIK3CB, Homo sapiens, UniProt P42338) | cell-free assay | 86% |
| Tyrosine-protein kinase Tec (TEC, Homo sapiens, UniProt P42680) | binding | 100% |
| Cyclin-dependent kinase-like 3 (CDKL3, Homo sapiens, UniProt Q8IVW4) | binding | 79% |
| Serine/threonine-protein kinase B-raf (BRAF, Homo sapiens, UniProt P15056, V600E) | cell-free assay | 62% |
| Tyrosine-protein kinase Mer (MERTK, Homo sapiens, UniProt Q12866) | cell-free assay | 100% |
| Bone morphogenetic protein receptor type-1A (BMPR1A, Homo sapiens, UniProt P36894) | binding | 100% |
| Serine/threonine-protein kinase PRP4 homolog (PRPF4B, Homo sapiens, UniProt Q13523) | cell-free assay | 77% |
| Mitogen-activated protein kinase 6 (MAPK6, Homo sapiens, UniProt Q16659) | cell-free assay | 97% |
| Leucine-rich repeat serine/threonine-protein kinase 2 (LRRK2, Homo sapiens, UniProt Q5S007, G2019S) | cell-free assay | 100% |
| Tyrosine-protein kinase receptor TYRO3 (TYRO3, Homo sapiens, UniProt Q06418) | cell-free assay | 100% |
| Insulin-like growth factor 1 receptor (IGF1R, Homo sapiens, UniProt P08069) | cell-free assay | 96% |
| Ribosomal protein S6 kinase alpha-5, C-terminal kinase domain (RPS6KA5, Homo sapiens, UniProt O75582) | cell-free assay | 87% |
| Death-associated protein kinase 1 (DAPK1, Homo sapiens, UniProt P53355) | cell-free assay | 89% |
| Serine/threonine-protein kinase PLK3 (PLK3, Homo sapiens, UniProt Q9H4B4) | cell-free assay | 80% |
| Phosphatidylinositol 4-kinase beta (PI4KB, Homo sapiens, UniProt Q9UBF8) | cell-free assay | 30% |
| Ephrin type-B receptor 3 (EPHB3, Homo sapiens, UniProt P54753) | cell-free assay | 99% |
| Receptor-type tyrosine-protein kinase FLT3 (FLT3, Homo sapiens, UniProt P36888, R834Q) | cell-free assay | 90% |
| Proto-oncogene tyrosine-protein kinase receptor Ret (RET, Homo sapiens, UniProt P07949, V804M) | cell-free assay | 91% |
| Glycogen synthase kinase-3 alpha (GSK3A, Homo sapiens, UniProt P49840) | cell-free assay | 100% |
| Epidermal growth factor receptor (EGFR, Homo sapiens, UniProt P00533, G719C) | cell-free assay | 83% |
| Tyrosine-protein kinase Fes/Fps (FES, Homo sapiens, UniProt P07332) | cell-free assay | 84% |
| Angiopoietin-1 receptor (TEK, Homo sapiens, UniProt Q02763) | cell-free assay | 98% |
| Mitogen-activated protein kinase kinase kinase 5 (MAP3K5, Homo sapiens, UniProt Q99683) | cell-free assay | 89% |
| Tyrosine-protein kinase SYK (SYK, Homo sapiens, UniProt P43405) | cell-free assay | 100% |
| Phosphatidylinositol 4,5-bisphosphate 3-kinase catalytic subunit alpha isoform (PIK3CA, Homo sapiens, UniProt P42336, E545A) | cell-free assay | 71% |

Set 4
Method: PRP chromatography
Notes: linear fit, 1 mL
| Compound | logD 1,9-decadiene/water |
| --- | --- |
| CC(C)C[C@@H]1NC(=O)[C@H](CCC(=O)N2CCCC2)NC(=O)[C@@H](C(C)C)NC(=O)[C@H](C(C)C)NC(=O)[C@H](CC(C)C)NC(=O)[C@@H](CC(C)C)NC(=O)[C@H](CC(C)C)NC1=O | 0.189 log units |
| CC(C)C[C@@H]1NC(=O)[C@H](CC(C)C)NC(=O)[C@@H](CC(C)C)NC(=O)[C@H](C(C)C)NC(=O)[C@H](C(C)C)NC(=O)[C@H](Cc2cscn2)NC(=O)[C@H](C)NC1=O | -1.43 log units |
| CC(C)C[C@@H]1NC(=O)[C@H](Cc2cscn2)NC(=O)[C@H](CC(C)C)NC(=O)[C@H](C(C)C)NC(=O)[C@H](CC(C)C)NC(=O)[C@@H](CC(C)C)NC(=O)[C@H](CC(C)C)NC1=O | 0.231 log units |
| CC(C)C[C@@H]1NC(=O)[C@H](C)NC(=O)[C@H](CC(C)C)NC(=O)[C@@H](CC(C)C)NC(=O)[C@H](CC(C)C)NC(=O)[C@H](C(C)C)NC(=O)[C@H](CCC(=O)N2CCCC2)NC1=O | -0.687 log units |
| CC(C)C[C@@H]1NC(=O)[C@H](C)NC(=O)[C@@H](CC(C)C)NC(=O)[C@@H](CC(C)C)NC(=O)[C@@H](Cc2cscn2)NC(=O)[C@H](CC(C)C)NC(=O)[C@@H](CC(C)C)NC1=O | 0.924 log units |
| CC(C)C[C@@H]1NC(=O)[C@H](CC(C)C)NC(=O)[C@H](CC(C)C)NC(=O)[C@H](C(C)C)NC(=O)[C@@H](Cc2cscn2)NC(=O)[C@H](CCC(=O)N2CCCC2)NC(=O)[C@H](C)NC1=O | -1.21 log units |
| CC(C)C[C@@H]1NC(=O)[C@H](C(C)C)NC(=O)[C@H](C)NC(=O)[C@@H](CC(C)C)NC(=O)[C@@H](CCC(=O)N2CCCC2)NC(=O)[C@H](CC(C)C)NC(=O)[C@@H](CC(C)C)NC1=O | -1.55 log units |
| CC(C)C[C@@H]1NC(=O)[C@H](Cc2cscn2)NC(=O)[C@@H](CC(C)C)NC(=O)[C@H](CC(C)C)NC(=O)[C@@H](CCC(=O)N2CCCC2)NC(=O)[C@H](CC(C)C)NC(=O)[C@@H](CC(C)C)NC1=O | -4.42 log units |
| CC(C)C[C@@H]1NC(=O)[C@H](Cc2cscn2)NC(=O)[C@H](CCC(=O)N2CCCC2)NC(=O)[C@H](C)NC(=O)[C@@H](Cc2cscn2)NC(=O)[C@H](CC(C)C)NC(=O)[C@@H](CC(C)C)NC1=O | -4.39 log units |
| CC(C)C[C@@H]1NC(=O)[C@H](C)NC(=O)[C@H](CC(C)C)NC(=O)[C@@H](CC(C)C)NC(=O)[C@H](CC(C)C)NC(=O)[C@H](C)NC(=O)[C@H](CCC(=O)N2CCCC2)NC1=O | 1.13 log units |

Some of these lines once more (set 4):
| Compound | logD 1,9-decadiene/water |
| --- | --- |
| CC(C)C[C@@H]1NC(=O)[C@H](C)NC(=O)[C@H](CC(C)C)NC(=O)[C@@H](CC(C)C)NC(=O)[C@H](CC(C)C)NC(=O)[C@H](C(C)C)NC(=O)[C@H](CCC(=O)N2CCCC2)NC1=O | -0.687 log units |
| CC(C)C[C@@H]1NC(=O)[C@H](C)NC(=O)[C@@H](CC(C)C)NC(=O)[C@@H](CC(C)C)NC(=O)[C@@H](Cc2cscn2)NC(=O)[C@H](CC(C)C)NC(=O)[C@@H](CC(C)C)NC1=O | 0.924 log units |
| CC(C)C[C@@H]1NC(=O)[C@H](CC(C)C)NC(=O)[C@H](CC(C)C)NC(=O)[C@H](C(C)C)NC(=O)[C@@H](Cc2cscn2)NC(=O)[C@H](CCC(=O)N2CCCC2)NC(=O)[C@H](C)NC1=O | -1.21 log units |
| CC(C)C[C@@H]1NC(=O)[C@H](C(C)C)NC(=O)[C@H](C)NC(=O)[C@@H](CC(C)C)NC(=O)[C@@H](CCC(=O)N2CCCC2)NC(=O)[C@H](CC(C)C)NC(=O)[C@@H](CC(C)C)NC1=O | -1.55 log units |
